Results gathered from unrelated publications.
Each numbered part is a random draw from the data of one study; scales do not carry over between parts.

Set 1 — technique: RNA Bind-n-Seq; form: RNA; medium: in vitro; tested at: 365 nM; baseline: no-protein control; direction: higher = stronger binding; quantity: RBNS enrichment (R)
Target: RNA binding protein fox-1 homolog 2, RRM domain, GST-SBP tag (RBFOX2, Homo sapiens, UniProt O43251-10, residues 100-194)
Notes: natural RNA segment, single round, ends assumed
All sequences stand within: GGGAGUUCUACAGUCCGACGAUC … UGGAAUUCUCGGGUGCCAA
Residues (chain): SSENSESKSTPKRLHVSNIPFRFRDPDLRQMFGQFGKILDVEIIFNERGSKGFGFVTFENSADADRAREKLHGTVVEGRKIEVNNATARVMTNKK
UUGAAAAAUCGAAGAAGCUUGGGAAAAAGUCUGAUUGAGCACCCCCACUCGACGCCUUCCUCAACUGCAGCUGGCCACUAACACUGCUUCUGGGGACUUGGCUGCCAAGU: 0.384
UGUGAGGGCAAACUAGAAUUAGUAGUGAGAAACUGCUAAAGCUGAUUUGCCAUUUUACUGAAAUGGAAAAUGAUUUUUUUUCAAAUAAAUACUUAUAUUGUUCAUGUUCC: 0.412
CUCGAGACAUUUUUUCUGUACUCAUAUUUAGAUUCACAAUGGUUGUGUAUCUCUAUAAUGUGAAAUAUUUUUUUGUGGUGAAUAAAAGGGGGCCAAGGAGGUAUGAGCCA: 0.894
UCCCCCAAGGUCUCUCCAUUCCAGUUUGGUCAAAUCUGCCAGUGCACUUUGUUAGAUGUAAAAUAAACCACGGGCCUUCCACAUGGGGUGACCCCCGCCCUGUCCCUUUC: 1.94
ACCCCUGCUGAGCGUGAUGGUCUAGCCUCCAUCAUGAAGAAGCUCUUGACCAAGUAUGACAACCUCUUUGAGACGUCCUUUCCCUACUCCAUGGGCUGGCAUGGGGCUCC: 0.544
AGGCAUGUAGAAUAAGCAUGGAGUCAUAUUGAGGAGGACUCACUUCUUGAAGAUAUGCUUGUUGCUUUACAACAUAUGUAAGCUAUUCUUUAGCAUAAAUGCAUUCAUUC: 8.47
UUUUGAUAAUGUAAGGAAACACAGGGACCACAAAACCUUUUUUUUUUUUUUAAGUGUGAAAGAUUAGUGCCUUUUGGCAUACUUUUGAUUUUAGAGGAUAUAGUAUCGGC: 0.442
UGCAUCCUGCUGCCAAGGGUGGACACGGCUGCAGACUUCUGGGGGAAUUGUCGCCUCCUGCUCUUUUGUUACUGAGUGAGAUAAGGUUGUUCAAUAAAGACUUUUAUCCC: 0.662
UUGUAGGAGGACAUAUAAUUCAUAUGCUAUGUUGUACAUUUUAUGGAAAUAUAAAAGAAUCCCACAUUAUUUUAUAGAGUACUUCAGGAGCAUCCUAAGUGUUAAGGCUG: 0.35
AUCUAUAUUGAUAUCAGAAAAUACUUGUUUUUUAAAGAUAUAUUGAUGUAUGAUAAAGAUGAUCUAAUUUGUGAAUGCAUAUGUGUGCGUGGUUACUUUUUAUAAUGUGA: 0.55
GUAAAAGGAGGAGCCUACCAAGUUAGGAGGGAGAAAAAAGAUUAACCAGCUAGUUAGAAAACCAUUUAUUUUUCUUUCUUCUUUCCCCACUUGUUAGAGGUAGGGCUAUG: 0.647

Set 2 — technique: protein binding microarray; form: double-stranded DNA, one strand shown; medium: in vitro; tested at: not given; baseline: not given; direction: higher = stronger binding; quantity: E-score
Target: Histone acetyltransferase KAT6A, winged helix 1, GST fusion (KAT6A, Homo sapiens, UniProt Q92794, residues 1-85)
Notes: 8-mer, flanks averaged, mean of 2 arrays, mostly near background
Residues (chain): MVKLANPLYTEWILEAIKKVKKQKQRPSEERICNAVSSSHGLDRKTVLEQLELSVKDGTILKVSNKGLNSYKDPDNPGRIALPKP
GCACCCAC: 0.0302
AAAGTCTA: -0.128
ACAAGGCC: 0.0154
GCGGTAGA: 0.129
CACTTTGC: -0.102
CAACAAGC: -0.0962
CCGGCCCC: 0.249
AAGCTAGT: -0.166

Set 3 — technique: aptamer microarray, sandwich; form: DNA with 2'F-ANA; medium: in vitro; tested at: 200 nM; with: Cy3 exosite-II aptamer, 400 nM; direction: higher = stronger binding; quantity: mean fluorescence intensity; oligonucleotide: GGTTGGTGTGGTTGG
Target: Prothrombin, mature alpha-thrombin (F2, Homo sapiens, UniProt P00734)
Notes: whole 15-mer aptamer, many near background
2'F-ANA at 2 3 4 5 6 11 13: 167 a.u.
2'F-ANA at 1 3 5 7 8 9 10 12 13 14: 49.5 a.u.
2'F-ANA at 1 2 6 7 8 11 13 14 15: 94.2 a.u.
2'F-ANA at 1 2 3 4 5 9 10 11 14 15: 45.4 a.u.
2'F-ANA at 1 2 5 8 10 15: 46 a.u.
2'F-ANA at 1 2 3 8 12 14 15: 135 a.u.
2'F-ANA at 1 2 10 11 13: 53.7 a.u.
2'F-ANA at 2 5 6 7 9 14: 46 a.u.

Other studies, line by line
PhoQ, residues 284 288 289 292 302 303 SNSSNI
fold induction (PhoP, residues 12 14 15 18 19 SGWQI (Escherichia coli, UniProt P23836); Sort-seq, refers to: YFP reporter; E. coli; PhoQ-PhoP variant library, with: 10 µM Mg2+; baseline: high Mg2+ state, higher = stronger signaling): 0.463

A few entries again (set 2):
AAGCTAGT: -0.166
CCGGCCCC: 0.249
